Measurements collected from several papers.
Each line is one published result; not all experiments were run side by side.
Organism: Acinetobacter baumannii

The MIC of `Cc1ccc(-c2nc3ccc(-c4c[nH]c(N)n4)cc3[nH]2)cc1` is reported as at least 200 µM (microbial growth, broth dilution; AB5075).
The MIC of `CC(C)C[C@H](NC(=O)[C@H](CC(N)=O)NC(=O)[C@H](CCCNC(=N)N)NC(=O)[C@@H](CC(C)C)NC(=O)[C@H](Cc1ccccc1)NC(=O)[C@H](CC(=O)O)NC(=O)[C@H](CCCCN)NC(=O)[C@@H](CC(C)C)NC(=O)[C@H](CCCNC(=N)N)NC(=O)[C@H](CCC(N)=O)NC(=O)[C@@H](NC(=O)[C@@H](CC(C)C)NC(=O)[C@H](CCCNC(=N)N)NC(=O)[C@H](CCCCN)NC(=O)[C@H](Cc1ccc(-c2ccccc2)cc1)NC(=O)CN)C(C)C)C(=O)N[C@H](C(N)=O)C(C)C` is reported as 3.1 µM (broth microdilution; B2367-12).
The MIC of `COc1ccc2ccc3c(c2c1)C=[N+]1C2CCCCC2[N+]2=Cc4cc(C(C)(C)C)ccc4[O][Au-]21[O]3.F[P-](F)(F)(F)(F)F` (stereo not drawn) is reported as over 20 µM (bacterial growth, broth microdilution; carbapenem-resistant clinical isolate; 24 h).
`NC[C@@H]1O[C@H](O[C@H]2[C@@H](O)[C@H](O[C@@H]3[C@@H](O)[C@H](N)C[C@H](N)[C@H]3O[C@H]3O[C@H](CO)[C@@H](CCO)[C@H](O)[C@H]3N)O[C@@H]2CO)[C@H](N)[C@@H](O)[C@@H]1O` gave an MIC of 2 to 4 µg/mL (reference strain).
For `CC(=O)N[C@H](CCCCN)C(=O)N[C@H](CC(C)C)C(=O)N[C@H](CCCCN)C(=O)N[C@H](CO)C(=O)N[C@H](CC(C)C)C(=O)N[C@H](CC(C)C)C(=O)N[C@H](CCCCN)C(=O)N[C@@H](C(=O)N[C@H](CC(C)C)C(=O)N[C@H](CO)C(=O)N[C@H](CCCCN)C(=O)N[C@H](C)C(=O)N[C@H](CCCCN)C(=O)N[C@H](CCCCN)C(=O)N[C@H](CCCCN)C(=O)N[C@H](CC(C)C)C(=O)N[C@H](CC(C)C)C(=O)N[C@H](CCCCN)C(=O)N[C@@H](C(=O)N[C@H](C)C(=O)N[C@H](CC(C)C)C(=O)N[C@H](CCCCN)C(=O)N[C@H](C)C(=O)N[C@H](CC(C)C)C(=O)N[C@H](CO)C(=O)N[C@H](CCCCN)C(N)=O)[C@H](C)O)[C@H](C)O`, the MIC was 0.7 µM (884, Mueller-Hinton broth; 24 h, 37 °C).
For `CCCCCCCCCC(=O)NCCCC[C@@H](NC(=O)[C@@H](CC(C)C)NC(=O)[C@@H](CCCCN)NC(=O)[C@@H](CCCCNC(=O)[C@@H](CC(C)C)NC(=O)[C@@H](CCN)NC(=O)[C@@H](CCCCNC(=O)[C@@H](Cc1ccccc1)NC(=O)[C@H](N)CCCN)NC(=O)[C@@H](Cc1ccccc1)NC(=O)[C@H](N)CCCN)NC(=O)[C@@H](CC(C)C)NC(=O)[C@@H](CCN)NC(=O)[C@@H](CCCCNC(=O)[C@@H](Cc1ccccc1)NC(=O)[C@H](N)CCCN)NC(=O)[C@@H](Cc1ccccc1)NC(=O)[C@H](N)CCCN)C(N)=O`, the MIC was 8 µg/mL (broth microdilution; ATCC 19606; 37 °C).
The MIC of `C/C(=N\NC(=N)N)c1nnn(-c2ccc(S(=O)(=O)NC3CCCC3)cc2)c1C` is reported as 32 µg/mL (microbial growth, broth dilution; AB5075).
The MIC of `c1ccc(CN2CCOCCOCCN(CCCCCCCCCCCCCCN3CCOCCOCCN(CCCCCCCCCCCCCCN4CCOCCOCCN(Cc5ccccc5)CCOCCOCC4)CCOCCOCC3)CCOCCOCC2)cc1` is reported as 6 µM (wild type).
The MIC of `NCC1OC(OC2C(N)CC(N)C(OC3OC(CO)C(O)C(N)C3O)C2OCCCCCCCCCCCCn2cc(CNc3nc(NCc4cn(CCCCCCCCCCCCOC5C(OC6OC(CN)C(O)CC6N)C(N)CC(N)C5OC5OC(CO)C(O)C(N)C5O)nn4)nc(NCc4cn(CCCCCCCCCCCCOC5C(OC6OC(CN)C(O)CC6N)C(N)CC(N)C5OC5OC(CO)C(O)C(N)C5O)nn4)n3)nn2)C(N)CC1O` (stereo not drawn) is reported as 64 µg/mL (microbial growth, broth dilution; ATCC17978).

Repeated from above:
The MIC of `Cc1ccc(-c2nc3ccc(-c4c[nH]c(N)n4)cc3[nH]2)cc1` is reported as at least 200 µM (microbial growth, broth dilution; AB5075).
